Experimental data pooled from the literature.
Numbers after ± are the reported error. Converted amounts (≈) assume the structure as drawn.

fluorouracil
IC50 (RKO; cell viability, MTS): 2.09 ± 0.87 µM

COCOc1ccc2nc3ccc(=O)cc-3oc2c1
MIC90 (Mycobacterium tuberculosis; mc2 6206 clofazimine-resistant fbiC mutant; 7 days): 46 µM (≈ 11.8 µg/mL)

Cc1cc(OCc2nnc(SC3CCCC3)n2-c2cccnc2)ccc1-c1ccc(S(C)(=O)=O)cc1
CC50 (CCRF-CEM): > 100 µM

CC1(C)CCC(Cc2cc(O)c(-c3ccccc3)c(=O)[nH]2)CC1
MIC50 (Mycobacterium tuberculosis; inhA S94A resistant mutant): 0.78 µM (≈ 0.243 µg/mL)

COc1cc(OC)c2ccccc2c1C=C1C(=O)NC(=S)NC1=O
ATP-linked respiration (Ly19; extracellular flux analysis; 4 µM, 24 h): decreased

CC#C/C(=N\OC[C@H]1COCCN1)c1ccc2ncnc(Nc3ccc(OCc4cccc(F)c4)c(Cl)c3)c2c1
ED50 (tumour growth; A-431, mouse subcutaneous xenograft; oral, 11 days daily): < 25 mg/kg

CC1CCC2(CC1)OOCN(CCCCCCCCCCN1COOC3(CCC(C)CC3)OOC3(CCC(C)CC3)OOC1)COOC1(CCC(C)CC1)OO2 (centres unmarked)
IC50 (K562; cytotoxicity, 7-AAD flow cytometry): 3.27 ± 0.15 µM

CCOC(=O)OCOc1c(-c2ccc(Oc3ccc(OC(F)(F)F)cc3)cc2)c(C)nc2cc(OC)c(Cl)cc12
minimum curative dose (Plasmodium berghei; causal prophylaxis; C57BL/6 albino mice; oral, single dose 24 h pre-infection): 1 mg/kg

CC[C@H](C)[C@@H]1NC(=O)[C@H](CCC(=O)O)NC(=O)[C@@H]2CCCN2C(=O)[C@H](Cc2c[nH]cn2)NC(=O)[C@H](CC(=O)O)NC(=O)[C@H](Cc2ccc(O)cc2)NC(=O)[C@H](CC(N)=O)NC(=O)[C@@H]2CSSC[C@@H]3NC(=O)CNC(=O)CNC(=O)CNC(=O)[C@H](C)NC(=O)[C@H](C)NC(=O)CNC(=O)CNC(=O)[C@H](CSSC[C@H](NC3=O)C(=O)N[C@@H](CO)C(=O)N[C@@H](CC(=O)O)C(=O)N3CCC[C@H]3C(=O)N[C@@H](CCCNC(=N)N)C(=O)N2)NC1=O
inhibition (barium current, inhibitor, electrophysiology; 0.2 µM, Cav2.3d Y1761F mutant): 1.7 ± 0.3%

CC(C)Cc1nnc2c(C(=O)NC3c4ccccc4-c4ccccc43)cccn12
IC50 ratio (RNA polymerase β′ D622G, Escherichia coli; enzyme activity, fluorescence; lacUV5 promoter; relative to: mutant over wild type): 6

O=c1ccc2nc3ccc(OCC4CCCOC4)cc3oc-2c1 (centres unmarked)
MIC90 (Mycobacterium tuberculosis; mc2 6206 bedaquiline-resistant MmpL5 regulator mutant; 7 days): 42 µM (≈ 13.1 µg/mL)

CCc1nc(N)nc(N)c1C#C[C@H](C)c1cc(OC)cc(-c2ccc(C(=O)O)cc2)c1
MIC (Staphylococcus aureus; MRSA isolate HH 714): 5 µg/mL (≈ 12 µM)

O=c1ccc2nc3ccc(OCc4ccccc4)cc3oc-2c1
MIC90 (Mycobacterium tuberculosis; mc2 6206 PA-824-resistant ddn mutant; 7 days): 27 µM (≈ 8.19 µg/mL)

CCC(C)C(CC)C(N)=O (centres unmarked)
ED50 (maximal electroshock seizure; mouse; intraperitoneal): 58 mg/kg

CO[C@]12CC[C@@]3(C[C@@H]1[C@@](C)(O)C(C)(C)C)[C@H]1Cc4c(Cl)cc(O)c5c4[C@@]3(CCN1CC1CC1)[C@H]2O5
peak antiwrithing effect (PPQ-induced writhing test; mice; dose not given): 20%

COc1ccc(Nc2cc(C)c3cc(NC(=O)c4ccc(N(C)C)cc4)ccc3n2)cc1
IC50 (dengue virus 2; viral replication, plaque reduction; BHK-21, NGC): 1 to 10 µM

CCC(C)C1NC(=O)/C(=C(/C)O)C1=O (centres unmarked)
specific activity (plasma membrane H+-ATPase (Spinacia oleracea); ATP hydrolysis; plasma membrane fraction; 20 µM, 10 min, preincubation, no fusicoccin, together with: 14-3-3 protein): 10 nmol Pi/mg/min

CC(=O)OCOc1ccc2nc3ccc(=O)cc-3oc2c1
MIC90 (Mycobacterium tuberculosis; mc2 6206 clofazimine-resistant fbiC mutant; 7 days): 25 µM

Cc1c(N2CC[C@@H](CN)C2)c(F)cc2c(=O)n(N)c(=O)n(C3CC3)c12
CC3 (Staphylococcus aureus topoisomerase IV GrlA S81F; DNA cleavage): 0.3 µM

CCCCCCCCCCCCCC(=S)NCCCC[C@H](NC(=O)OCc1ccccc1)C(=O)Nc1cccc(O)c1
GI50 (AsPC-1; cell growth): 8.6 ± 0.9 µM

Cc1ccc(S(=O)(=O)N(C)CC(=O)N(Cc2ccc(C3CCCCC3)cc2)c2ccc(C(=O)O)c(O)c2)cc1
protein level (MDA-MB-231, PANC-1, NIH3T3/v-Src; immunoblotting, measured: c-Myc, Bcl-xL, VEGF, survivin, MMP-9; 50 µM, 24 h): decreased

CCc1nc(N)nc(N)c1C#CCc1cc(OC)cc(-c2ccc(C(=O)O)cc2)c1
MIC (Staphylococcus aureus; MSSA isolate UCH 1): 10 µg/mL (≈ 24.8 µM)

CCCCCCC1c2ccc(O)cc2Oc2cc(O)ccc21
MIC (Klebsiella pneumoniae; BARB 105; together with: polymyxin B nonapeptide 25 µg/mL): 14.9 µg/mL (≈ 49.9 µM)

c1ccc(Nc2cccc3ccccc23)cc1
Kd (Manis javanica OBP3 Y117F; binding, fluorescence binding; together with: 1-NPN probe): 0.48 ± 0.11 µM

CCN(CC)C(=O)Oc1ccc(C(=O)Nc2cccc3cc[nH]c23)cc1
IC50 (rat GluN1/GluN2C diheteromeric NMDA receptor; inhibitor, two-electrode voltage clamp; Xenopus oocytes): 5.1 µM

O=C(N/N=C/c1cc([N+](=O)[O-])ccc1O)c1ccc(O)cc1O
cell growth (SK-OV-3 GFP knock-out control; cell counting; 10 µM, 6 d): decreased

COCCOc1ccc2nc3ccc(=O)c(Cl)c-3oc2c1
MIC90 (Mycobacterium tuberculosis; mc2 6206 bedaquiline-resistant MmpL5 regulator mutant; 7 days): > 256 µM

C1CCCC2(CC1)OOCOCOOC1(CCCCCC1)OO2
IC50 (U-937; cytotoxicity, 7-AAD flow cytometry): 6.88 ± 0.27 µM

Cc1ccc(-c2csc(N(CC3OC(n4c[n+](Cc5ccccc5)c5c(=O)[nH]c(NC(=O)c6ccccc6)nc54)C4OC(C)(C)OC34)P(=O)([O-])O)n2)cc1 (centres unmarked)
IC50 (Caco-2; cell growth, SRB): > 100 µM

O=c1ccc2nc3ccc(OCc4ccc([N+](=O)[O-])cc4)cc3oc-2c1
MIC90 (Mycobacterium tuberculosis; mc2 6206 PA-824-resistant ddn mutant; 7 days): > 256 µM

C(CCCCCN1COOC2(CCCC2)OOC2(CCCC2)OOC1)CCCCN1COOC2(CCCC2)OOC2(CCCC2)OOC1
IC50 (U-937; cytotoxicity, 7-AAD flow cytometry): 3.02 ± 0.13 µM

O=c1ccc2nc3ccc(OCC4CCOCC4)cc3oc-2c1
MIC90 (Mycobacterium tuberculosis; mc2 6206 PA-824-resistant ddn mutant; 7 days): > 256 µM

C[C@H]1COc2c(N3CCN(C)CC3)c(F)cc3c(=O)c(C(=O)O)cn1c23
maximal DNA cleavage (Staphylococcus aureus topoisomerase IV GrlA S81Y): 23.5%

O=c1ccc2ccc(OCc3ccc([N+](=O)[O-])o3)cc2o1
MIC90 (Mycobacterium tuberculosis; mc2 6206 bedaquiline-resistant MmpL5 regulator mutant; 7 days): 15.6 µM (≈ 4.48 µg/mL)

CSc1nc(Cl)cc(Sc2nnc(-c3cc(C(F)(F)F)cc(C(F)(F)F)c3)[nH]2)n1
MIC (Pseudomonas aeruginosa; MDR clinical isolate; together with: polymyxin B nonapeptide 3 µg/mL): 0.2 µg/mL (≈ 0.424 µM)

Some of these lines once more:
CCN(CC)C(=O)Oc1ccc(C(=O)Nc2cccc3cc[nH]c23)cc1
IC50 (rat GluN1/GluN2C diheteromeric NMDA receptor; inhibitor, two-electrode voltage clamp; Xenopus oocytes): 5.1 µM

O=C(N/N=C/c1cc([N+](=O)[O-])ccc1O)c1ccc(O)cc1O
cell growth (SK-OV-3 GFP knock-out control; cell counting; 10 µM, 6 d): decreased

COCCOc1ccc2nc3ccc(=O)c(Cl)c-3oc2c1
MIC90 (Mycobacterium tuberculosis; mc2 6206 bedaquiline-resistant MmpL5 regulator mutant; 7 days): > 256 µM
